Experimental data pooled from the literature.
Each line is one published result; not all experiments were run side by side. Numbers after ± are the reported error.
Sequence of UniProt P21917 (whole entry, unmodified, looked up): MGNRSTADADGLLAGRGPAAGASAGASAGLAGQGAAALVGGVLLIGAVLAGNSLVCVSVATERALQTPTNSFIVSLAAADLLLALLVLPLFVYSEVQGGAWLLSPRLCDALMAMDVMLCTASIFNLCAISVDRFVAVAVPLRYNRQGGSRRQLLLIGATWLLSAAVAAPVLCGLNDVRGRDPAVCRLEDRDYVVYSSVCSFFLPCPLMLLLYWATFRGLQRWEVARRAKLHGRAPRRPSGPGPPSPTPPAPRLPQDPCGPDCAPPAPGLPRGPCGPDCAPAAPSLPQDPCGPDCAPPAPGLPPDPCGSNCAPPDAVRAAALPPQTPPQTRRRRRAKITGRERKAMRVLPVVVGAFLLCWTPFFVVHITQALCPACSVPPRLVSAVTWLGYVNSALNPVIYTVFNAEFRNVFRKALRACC

For `O=C(O)CCC(CP(=O)(O)O)C(=O)O` (stereo not shown), the Vd/F was 0.44 L/kg (rat Wistar male, plasma; intraperitoneal, 100 mg/kg).
`COc1ccc2c3c1O[C@H]1[C@@H](O)CC[C@@]4(O)[C@@H](C2)N(C)CC[C@]314` gave a logP of 1.14 (1 h).
For `Cc1cc(C(=O)NC(C)(C)COc2cccc3c2C(N)=NS(=O)(=O)N3)cc(C)n1`, the revertant ratio was 1.1 (Salmonella typhimurium; Ames test, initial; TA98; 1500 µg/plate, with: rat liver S9; relative to: solvent control).
`CO[C@H]1C[C@@H]2CC[C@@H](C)[C@@](O)(O2)C(=O)C(=O)N2CCCC[C@H]2C(=O)O[C@H]([C@H](C)C[C@@H]2CC[C@@H](OC(=O)NCCOCCOCCOCCOCCOCCOCCOCCOCCC(=O)N3CCc4cc(Cn5nc(-c6ccc7oc(N)nc7c6)c6c(N)ncnc65)ccc4C3)[C@H](OC)C2)C[C@@H](O)[C@H](C)/C=C(\C)[C@@H](O)[C@@H](OC)C(=O)[C@H](C)C[C@H](C)/C=C/C=C/C=C/1C` has a TRAE incidence of 8.3% (phase 1 dose escalation, measured: rash; advanced solid tumour patients; intravenous, 6 mg weekly, grade ≥3).
Under “Kp,uu, brain to plasma, unbound partition coefficient”, `COC(=O)[C@@H](NC(=O)c1nn(Cc2ccc(F)cc2)c2ccccc12)C(C)(C)C` is recorded as 2.95 (mouse; intraperitoneal, 3 mg/kg, 0.5 h; relative to: brain over plasma).
With `CCCCCCCCCCC(=O)O[C@H]1CC[C@H]2[C@@H]3CCC4=CC(=O)CC[C@]4(C)[C@H]3CC[C@]12C` the testosterone level was 524 ng/dL (human male serum; 500 ng/mL, NaF 25.0 mg/mL, baseline testosterone 544 ng/dL).
`CN1CC[C@@H](c2c(O)cc(O)c3c(=O)cc(-c4ccc(C(F)(F)F)cc4Cl)oc23)[C@@H]1CO`: “patients with adverse event” 0% (measured: Pyrexia; B-cell malignancies; oral, 150 mg, intermittent dosing).
`COC(=O)OCOc1c2n(ccc1=O)N([C@@H]1c3ccccc3SCc3c1ccc(F)c3F)[C@@H]1COC3(CC3)CN1C2=O`: “share of hydrolytic clearance by AADAC” 86.5% (human liver S9; time not given, with: vinblastine).
With `O=C(O)c1cn(Cc2ccc(F)cc2)c2ccccc12` the Km was 141 ± 39 µM (glucuronidation; human liver microsomes; 60 min, 37 °C, with: UDPGA).
`C[C@H]1CN(c2n[nH]c3nc(N[C@H]4CC[C@H](NS(=O)(=O)CCC(F)(F)F)CC4)ncc23)CCO1` gave a relative abundance of 0.97 (Paxillin (PXN, Homo sapiens, UniProt P49023); competitor, Kinobeads competition, measured: PXN; human cell extract; 0.16 µM; relative to: vehicle).
`COc1cc(Nc2ncc(F)c(Nc3ccc4c(n3)NC(=O)C(C)(C)O4)n2)cc(OC)c1OC` has an IC50 of > 10 µM (DRD4 (Homo sapiens, UniProt P21917, del265-296)).
Under “share of total exemestane metabolites”, `C=C1C[C@H]2[C@@H]3CC[C@H](O)[C@@]3(C)CC[C@@H]2[C@@]2(C)C=CC(=O)C=C12` is recorded as 1.8% (postmenopausal women, serum; UGT2B17 and GSTA1 genotypes).
`C#Cc1ccc2c(c1)C(c1ccccn1)=NCc1c(-c3cnco3)ncn1-2.Cl` gave a solubility of 13.1 mg/mL (shake flask; aqueous buffer; 24 h, pH 1, 25 °C).
Under “log2 fold change”, `CC[C@H](C)[C@@H]1NC(=O)[C@@H]2CCCN2C(=O)[C@H](CC(C)C)NC(=O)[C@H](CC(C)C)NC(=O)CNC(=O)[C@@H](NC(=O)[C@@H](NC(=O)[C@H](CC(=O)O)NC(=O)CNC(=O)[C@@H](NC(=O)[C@H](C)NC(=O)CNC(=O)[C@H](CCCCN)NC(=O)[C@H](CC(C)C)NC(=O)[C@H](CC(C)C)NC(=O)[C@H](CCCCN)NC(=O)CNC(=O)[C@@H](NC(=O)[C@@H](N)CC(C)C)C(C)C)C(C)C)C(C)C)CSSC[C@@H](C(=O)O)NC1=O` is recorded as -2.29 (RNA-seq, measured: Sgms2; mouse, traumatic brain injury model, frontal cortex and hippocampus; dose not given; relative to: TBI alone).
`OCc1ncc2n1-c1ccc(Cl)cc1C(c1ccccc1F)=NC2` has a half-life of 3.3 h (human, plasma; 7.5 mg midazolam, day 12, arithmetic mean, with: amenamevir 400 mg).
`Cc1ccc(-c2nc3ccc(C)cn3c2CC(=O)N(C)C)cc1` gave a fu,mic of 0.985 (human liver microsomes 0.5 mg/mL; 5 µM, 24 h).
`Cc1onc(-c2c(F)cccc2Cl)c1C(=O)N[C@@H]1C(=O)N2[C@@H]1SC(C)(C)[C@@H]2C(=O)O`: “deviation from nominal concentration” -2.3% (human whole blood; concentration not given, 48 h, 4 °C).
Under “participants with adverse event”, `CCCCCCOC(=O)NC(=N)c1ccc(NCc2nc3cc(C(=O)N(CCC(=O)OCC)c4ccccn4)ccc3n2C)cc1` is recorded as 0% (measured: Influenza; human; oral, 75 mg, alone).
`COc1cccc(-c2n[nH]c(SCc3ccccn3)n2)c1OC`: “revertant colonies per plate” 126 (Salmonella typhimurium; Ames test, preincubation; TA100; 0.25 mg/plate, without S9).
`COc1cc2c(Oc3ccc4[nH]c(C)cc4c3F)ccnc2cc1OCC1(N)CC1` — result for “incidence of adverse event”: 0% (measured: grade 3 influenza-like symptoms; paediatric high-risk refractory sarcoma; whole group).
For `CCN(CC)C(=O)[C@@H]1C=C2c3cccc4[nH]cc(c34)C[C@H]2N(C)C1`, “List of Complaints score” read 3 (measured: impaired concentration; healthy volunteers; dose not given, 12 to 24 h; relative to: placebo, direction not given).
The tissue uptake of `CC[C@H](C)[C@H](NC(=O)[C@H](Cc1ccccc1)NC(=O)[C@H](CCC(=O)O)NC(=O)[C@H](CCCNC(=N)N)NC(=O)[C@H](C)NC(=O)[C@H](C)NC(=O)[C@H](CCC(N)=O)NC(=O)[C@H](CCC(=O)O)NC(=O)[C@H](CCC(=O)O)NC(=O)[C@H](CC(C)C)NC(=O)[C@H](Cc1ccc(O)cc1)NC(=O)[C@H](CO)NC(=O)[C@H](CO)NC(=O)[C@@H](NC(=O)[C@H](CC(=O)O)NC(=O)[C@H](CO)NC(=O)[C@@H](NC(=O)[C@H](Cc1ccccc1)NC(=O)[C@@H](NC(=O)CNC(=O)[C@H](CCC(=O)O)NC(=O)[C@H](C)NC(=O)CCc1c[nH]cn1)[C@@H](C)O)[C@@H](C)O)C(C)C)C(=O)N[C@@H](C)C(=O)N[C@@H](Cc1c[nH]c2ccccc12)C(=O)N[C@@H](CC(C)C)C(=O)N[C@H](C(=O)N[C@@H](CCCNC(=N)N)C(=O)NCC(=O)N[C@@H](CCCNC(=N)N)C(=O)N[C@@H](CCCCNC(=O)COCCOCCNC(=O)COCCOCCNC(=O)CC[C@H](NC(=O)CCCCCCCCCCCCCCCCC(=O)O)C(=O)O)C(=O)NCC(=O)NCC(=O)N[C@@H](CO)C(=O)N[C@@H](CCCCNc1c(NCCCCCN(O)C(=O)CCC(=O)NCCCCCN(O)C(=O)CCC(=O)NCCCCCN(O)C(C)=O)c(=O)c1=O)C(=O)O)C(C)C` [zirconium-89 labelled] is reported as 0.49 %ID/g (rat, spleen; iv, 3 nmol/kg, 24 h, ex vivo).
The tissue uptake of `C[C@@H](O)[C@@H](CO)NC(=O)[C@@H](CCCNC(=N)N)NC(=O)[C@@H]1CCCN1C(=O)[C@@H]1CSSC[C@H](NC(=O)[C@H](Cc2ccccc2)NC(=O)CN2CCN(CC(=O)O)CCN(CC(=O)O)CCN(CC(=O)O)CC2)C(=O)N[C@@H](Cc2ccc(O)cc2)C(=O)N[C@@H](Cc2ccccc2)C(=O)N[C@@H](CCC(N)=O)C(=O)N[C@@H](CC(N)=O)C(=O)N1` [gallium-68 labelled] is reported as 0.02 %ID/g (Wistar rat, pancreas; intravenous, 8 MBq, 120 min, group mean).
The AUC(0-90 min) of `Cc1ncc2n1-c1ccc(Cl)cc1C(c1ccccc1F)=NC2` is reported as 0.0368 ± 0.00198 µM·h (wild-type mice, plasma; intravenous, 0.3 mg/kg, with: 3-day PCN 10 mg/kg).
With `C[C@@H](O)[C@H](NC(=O)[C@@H]1CSSC[C@H](NC(=O)[C@@H](Cc2ccccc2)NC(=O)CN2CCN(CC(=O)[O-])CCN(CC(=O)[O-])CCN(CC(=O)[O-])CC2)C(=O)N[C@@H](Cc2ccc(O)cc2)C(=O)N[C@H](Cc2c[nH]c3ccccc23)C(=O)N[C@@H](CCCCN)C(=O)N[C@@H]([C@@H](C)O)C(=O)N1)C(=O)O.[177Lu+3]` the retention was 29.3% (MEC1; gamma counter; 120 min efflux after 2 h loading).
The plasma concentration of `O=C1c2c(O)c(=O)ccn2N([C@@H]2c3ccccc3SCc3c2ccc(F)c3F)[C@@H]2COCCN12` is reported as 14.3 ng/mL (BALB/c mice, plasma; oral, 1.5 mg/kg baloxavir marboxil, 1 h).
The aspartate aminotransferase of `O=C(O)c1cn(Cc2cccc(Cl)c2)c2ccccc12` is reported as 84 U/L (F344 rat, male, serum; oral, 150 mg/kg/day, 2 days, group mean).
`C=C1C[C@H]2[C@@H]3CC[C@H](O[C@@H]4O[C@H](C(=O)O)[C@@H](O)[C@H](O)[C@H]4O)[C@@]3(C)CC[C@@H]2[C@@]2(C)C=CC(=O)C=C12`: “share of total exemestane metabolites” 44% (postmenopausal women, serum; UGT2B17 and GSTA1 genotypes).
Under “participants with adverse events”, `Cc1ncc2n1-c1ccc(Cl)cc1C(c1ccccc1F)=NC2` is recorded as 41.7% (healthy subjects; oral, 2 mg, 1 day, single dose, DDI study part).
For `COc1cc(C)[nH]c(=O)c1CNC(=O)c1c(C)n([C@H](C)C2CCN(CC(F)(F)F)CC2)c2ccccc12`, the AUC(0-t) was 59900 ng·h/mL (female CB17 SCID mice, HT-1376 xenograft, plasma; 75 mg/kg, day 1).
`Cc1ncc2n1-c1ccc(Cl)cc1C(c1ccccc1F)=NC2` has an oral bioavailability of 65% (human).

Some of these lines once more:
`C=C1C[C@H]2[C@@H]3CC[C@H](O[C@@H]4O[C@H](C(=O)O)[C@@H](O)[C@H](O)[C@H]4O)[C@@]3(C)CC[C@@H]2[C@@]2(C)C=CC(=O)C=C12`: “share of total exemestane metabolites” 44% (postmenopausal women, serum; UGT2B17 and GSTA1 genotypes).
For `CCN(CC)C(=O)[C@@H]1C=C2c3cccc4[nH]cc(c34)C[C@H]2N(C)C1`, “List of Complaints score” read 3 (measured: impaired concentration; healthy volunteers; dose not given, 12 to 24 h; relative to: placebo, direction not given).
With `CCCCCCCCCCC(=O)O[C@H]1CC[C@H]2[C@@H]3CCC4=CC(=O)CC[C@]4(C)[C@H]3CC[C@]12C` the testosterone level was 524 ng/dL (human male serum; 500 ng/mL, NaF 25.0 mg/mL, baseline testosterone 544 ng/dL).
